Results gathered from unrelated publications.
A part holds a random share of what one study measured. Positions count from the first letter of the parent shown.

Sample 1 — method: protein binding microarray; form: double-stranded DNA, one strand shown; sample: in vitro; concentration: not given; baseline: not given; reading: higher = stronger binding
Target: Histone acetyltransferase KAT6A, winged helix 1, GST fusion (KAT6A, Homo sapiens, UniProt Q92794, residues 1-85)
Setting: 8-mer, flanks averaged, mean of 2 arrays, mostly near background
Residues (chain): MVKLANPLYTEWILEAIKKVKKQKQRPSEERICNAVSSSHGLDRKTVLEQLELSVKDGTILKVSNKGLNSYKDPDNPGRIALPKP
| Sequence | E-score |
| --- | --- |
| AAAAGAAG | -0.00092 |
| CAAACGCC | 0.0583 |
| CGCGCTAC | 0.417 |
| AAATATAA | -0.0941 |
| GACGACAA | -0.234 |
| ACCCACGC | 0.136 |
| ACGCCCGC | 0.405 |
| CATCAGTA | -0.154 |
| CGACACAC | -0.0412 |
| GTTCGAGA | -0.00188 |
| AGACCTGA | -0.234 |
| GTTCCCTA | -0.246 |
| GCCGAACC | 0.261 |
| AGGCGCAC | 0.193 |
| ACCTTGGC | -0.155 |
| GCCCTACA | -0.0209 |
| TAGATATA | 0.0205 |
| GTTGTGCA | -0.258 |
| GAGTTACC | -0.108 |
| ACGATACT | -0.0624 |
| CAGTTCGC | 0.0133 |
| CCCGTCAC | 0.291 |
| AGGGGTTC | -0.169 |
| AAGATAGG | -0.236 |

Sample 2 — method: DHFR PCA, deep sequencing; sample: yeast; added: (+)-ABA 0.39 µM; baseline: wild-type fitted maximum; reading: higher = stronger binding
Target: ABI1, truncated, D143A, DHFR fusion (Arabidopsis thaliana)
Setting: methotrexate growth selection, single substitutions
Starting sequence: PYL1, truncated, DHFR fusion (Arabidopsis thaliana); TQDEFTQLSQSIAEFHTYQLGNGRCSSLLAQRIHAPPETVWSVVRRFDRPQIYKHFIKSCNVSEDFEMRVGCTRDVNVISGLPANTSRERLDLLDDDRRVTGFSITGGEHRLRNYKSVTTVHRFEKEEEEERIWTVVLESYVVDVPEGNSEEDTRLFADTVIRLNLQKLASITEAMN; partner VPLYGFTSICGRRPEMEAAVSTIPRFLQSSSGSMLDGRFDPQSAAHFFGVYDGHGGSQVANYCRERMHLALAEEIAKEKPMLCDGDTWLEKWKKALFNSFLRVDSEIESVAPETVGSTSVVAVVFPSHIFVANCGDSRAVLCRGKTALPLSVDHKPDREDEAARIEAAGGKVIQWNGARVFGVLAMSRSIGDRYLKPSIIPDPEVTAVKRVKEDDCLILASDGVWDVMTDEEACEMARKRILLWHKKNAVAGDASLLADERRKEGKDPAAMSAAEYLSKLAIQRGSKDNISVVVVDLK
| Substitution | relative binding score [%] |
| --- | --- |
| R123V | 4.68 |
| S59K | 10.4 |
| V43R | -8.77 |
| L166H | 12.3 |
| Q7G | 44.4 |
| R90K | 18.5 |
| G102R | -0.292 |
| H34S | 39.1 |
| L20G | 42.9 |
| Y141I | -9.36 |
| E147H | 26 |
| V161E | -17.3 |
| P83K | 6.3 |
| T101R | -10.8 |
| R163W | -3.13 |
| G21Y | 11.7 |
| T120I | -4.67 |
| H34M | 50.7 |
| R155E | -10.8 |
| F15Q | 3.42 |
| N149P | -2.8 |

Sample 3 — target: OGT, full length, His-tagged (human); method: phage display, sequencing; sample: in vitro; concentration: 1 µg OGT; baseline: input library; reading: higher = stronger binding; starting sequence: peptide; GDFPVMFMPKYSIIY
Setting: single substitutions, 15-mer displayed peptide, unchanged parent 5.27
| Substitution | fold enrichment [fold] |
| --- | --- |
| I13G | 0.11 |
| K10A | 1.46 |
| D2P | 4.52 |
| Y15K | 0.626 |
| V5W | 3.94 |
| I13F | 1.56 |
| D2L | 6.54 |
| Y15V | 7.35 |
| D2R | 5.17 |
| P4N | 9.69 |
| S12P | 7.57 |
| S12E | 5.04 |
| I13V | 1.29 |
| K10Y | 4.24 |

Sample 4 — target: CCNA2, cyclin fold, Cln2 fusion (human); method: yeast growth competition, sequencing; sample: yeast; setting: weak parent motif; baseline: not given; reading: higher = stronger binding
Starting sequence: SLBP docking peptide (human); ARYKRKLLINDFG
| Substitution | normalised enrichment score |
| --- | --- |
| ARYKRKLKINDFG [L8K] | 0.196 |
| ARYKRKLLINDFD [G13D] | 0.487 |
| ARYKRKVLINDFG [L7V] | 1.79 |
| ARYKRKLPINDFG [L8P] | 0.746 |
| ARYKRKLLINDFW [G13W] | 1.39 |
| ARYHRKLLINDFG [K4H] | 1.38 |
| ARRKRKLLINDFG [Y3R] | 0.927 |
| ARYKRKLLINDVG [F12V] | 0.74 |
| FRYKRKLLINDFG [A1F] | -0.449 |
| AWYKRKLLINDFG [R2W] | 1.17 |
| ARYKRKLLINDKG [F12K] | 1.27 |
| ARYVRKLLINDFG [K4V] | 1.32 |
| ARYKRKLLIYDFG [N10Y] | 1.57 |
| ARYKRKFLINDFG [L7F] | 0.815 |
| ARYKRKDLINDFG [L7D] | 1.12 |
| ARYKRKLLIFDFG [N10F] | 1.74 |
| ARYKRKLWINDFG [L8W] | 2.28 |
| ARYKRWLLINDFG [K6W] | 2.3 |
| ARYKRKLSINDFG [L8S] | 0.565 |
| ARYKMKLLINDFG [R5M] | 1.6 |
| LRYKRKLLINDFG [A1L] | 0.229 |
| ARYKPKLLINDFG [R5P] | 0.848 |
| ARTKRKLLINDFG [Y3T] | 1.17 |
| ARYKRKLLINDFL [G13L] | 0.842 |
| ARYKRKPLINDFG [L7P] | 1.13 |

Sample 5 — method: protein-binding microarray; form: double-stranded DNA, one strand shown; sample: in vitro; concentration: 0.8 µM; setting: whole 60-bp probe, no competitor; reading: higher = stronger binding; all sequences stand within: … GTCTTGATTCGCTTGACGCTGCTG
Target: Centromere-binding protein 1, full length, N-terminal tag (CBF1, Saccharomyces cerevisiae, UniProt P17106, residues 1-351)
Chain of UniProt P17106 (whole entry, looked up): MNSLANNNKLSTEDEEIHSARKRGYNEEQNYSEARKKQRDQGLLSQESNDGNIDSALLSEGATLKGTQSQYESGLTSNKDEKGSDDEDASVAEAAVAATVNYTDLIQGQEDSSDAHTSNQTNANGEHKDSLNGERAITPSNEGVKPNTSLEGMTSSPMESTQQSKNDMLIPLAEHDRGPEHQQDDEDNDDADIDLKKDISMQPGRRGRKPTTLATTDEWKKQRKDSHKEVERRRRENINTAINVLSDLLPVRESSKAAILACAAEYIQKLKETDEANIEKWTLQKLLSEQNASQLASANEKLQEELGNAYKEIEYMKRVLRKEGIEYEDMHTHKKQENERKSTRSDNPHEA
| Sequence | fluorescence intensity [a.u.] |
| --- | --- |
| CTAAAATTTTTTCGTCAGCTCTCCGAGTTCATATTC | 542 |
| CCTAACTACTATATTAACATCAGATAGCTTCGTACA | 523 |
| GAAGGACGAGAAAACCGTGTGACACCGTCCGCTTAG | 568 |
| CCTAACTACTATATCCATCTGATATAGCTTCGTACA | 561 |
| CTATGGCTCAGTAACCTCGTGATAGAAAAAGGGTTC | 2430 |
| GAAATGAAGAACGCACACGTTCCGTACTAGAGATAG | 562 |
| GAATATATATTCATGCACATGTGTAACAATGTATAG | 1300 |
| CTAGCTTGAAACGAACGCACCACGAAGTCAGTGTTC | 516 |
| GAATTGATAGGTGTGTGCGTGTATATACGTGCGTAG | 585 |
| CTACGCGCGCAAAAGCACGCACGCATTGACCGGTTC | 502 |
| CTATCCACTTTTTTCAACGTGCAAAAGTTGTCCTTC | 601 |
| GAACAAATTTACAATGGAGTCACCTAAGCATTTTAG | 545 |
| CTAGCTATGGAAAGGCACGTAGTTCTACTTACTTTC | 472 |
| CTATACATCAAAATCCACGTTCTCTTCATGGTATTC | 553 |
| CCTAACTACTATATGTGCGTGATATAGCTTCGTACA | 602 |
| CTACAATATACGAGCCACGTTTTTGGCGTCGCATTC | 610 |
| GAATGTTAAGCTTACATCAGCACTAAAAAACAATAG | 560 |
| GAACATTTTATCCATTATCTGATGCATTTCCCTTAG | 513 |
| CTAAGGTAGTTGGGTCAGCTGAAGTAGTTGGGTTTC | 597 |
| GAACAAAGACTCCGTAACATCACAGAGAACTTTTAG | 552 |
| GAATAGGAAACGCATGTGGTAGCTCGTTTCGTCTAG | 524 |
| GAAATTTACTAATATCACGATTATTCTTCATTCTAG | 539 |
| CTAAAGATTCTTGTTCATGTGATACAGCTTTTCTTC | 1950 |
| CTAAAGACATGAAATCACACTGAAATAACGCCTTTC | 528 |
| CTAGGTGGCGAAACAAAGGTGATGAAAGTTTCTTTC | 476 |

Sample 6 — method: protein-binding microarray; form: double-stranded DNA, one strand shown; sample: in vitro; concentration: 940 nM top; setting: 60-bp whole probe; added: salmon DNA 0.4 mg/ml; baseline: random background probes; reading: higher = stronger binding; all sequences stand within: GCCTAGCAC … GTCTTGATTCGCTTGACGCTGCTG
Target: Interferon regulatory factor 5, full length, phosphomimetic (IRF5, Homo sapiens, UniProt Q13568-2, residues 1-514, S451D/S453D/S456D/S462D)
| Sequence | fitted relative affinity [z-score] |
| --- | --- |
| TCACCTGTGCTATTTATAACTGTGCTA | 0.162 |
| GACGGAATGGGGTTTCGGGACGTGCTA | 1.83 |
| TTACGTCTCCTTATCCTTTAGTGCTAG | 1.56 |
| TTAGGACTGGACACTGGGCTAGTGCTA | -0.456 |
| TGAGGTTTCGGGTATCGGTTAGTGCTA | 7.93 |
| GAGTTTCCATTTTCTGAATGCGTGCTA | 3.11 |
| TCACTCTTCTGGATCTCACTGTGCTAG | 1.12 |
| GACGGTCTCGGTATCGGAACGTGCTAG | 4.92 |
| GACGGTTTCGGTTTCGAGACGTGCTAG | 13.3 |
| TCAAAATTGTCTCTGTCACTGTGCTAG | 0.884 |
| TCAGCTTTCTTTAACTCACTGTGCTAG | 0.954 |
| GAGTCTTCTCCTCTAGGTTCGTGCTAG | 0.635 |
| TTAGAACTGAGTCTCGACTAGTGCTAG | 0.905 |
| GTTGTACTTTCTATCTCTGTGTGCTAG | 2.21 |
| TCAGGTCTCCTTCTCCTTTAGTGCTAG | 0.571 |

Single results of other studies
| Molecule | target | test | system | conditions | how to read | quantity | result |
| --- | --- | --- | --- | --- | --- | --- | --- |
| PhoQ, residues 284 288 289 292 302 303 SNSSNI | PhoP, residues 12 14 15 18 19 NHFRA (Escherichia coli, UniProt P23836) | Sort-seq, refers to: YFP reporter | E. coli | PhoQ-PhoP variant library, added: 10 µM Mg2+ | baseline: high Mg2+ state, higher = stronger signaling | fold induction | 0.893 |

Excerpt of the above (sample 2):
| Substitution | relative binding score [%] |
| --- | --- |
| Y141I | -9.36 |
| V161E | -17.3 |
| L20G | 42.9 |
| H34S | 39.1 |
| R90K | 18.5 |
| L166H | 12.3 |
| T120I | -4.67 |
| S59K | 10.4 |
| E147H | 26 |
| T101R | -10.8 |
| R123V | 4.68 |
| Q7G | 44.4 |
| H34M | 50.7 |
| P83K | 6.3 |
| N149P | -2.8 |
| R155E | -10.8 |
